# Measurements collected from several papers.
# Several values in a cell are separate wells, animals, samples, runs or records. Numbers after ± are the reported error.
# MCOLN3: Mucolipin-3 (MCOLN3, Homo sapiens, UniProt Q8TDD5)
# Sequence of UniProt Q8TDD5 (whole entry, looked up): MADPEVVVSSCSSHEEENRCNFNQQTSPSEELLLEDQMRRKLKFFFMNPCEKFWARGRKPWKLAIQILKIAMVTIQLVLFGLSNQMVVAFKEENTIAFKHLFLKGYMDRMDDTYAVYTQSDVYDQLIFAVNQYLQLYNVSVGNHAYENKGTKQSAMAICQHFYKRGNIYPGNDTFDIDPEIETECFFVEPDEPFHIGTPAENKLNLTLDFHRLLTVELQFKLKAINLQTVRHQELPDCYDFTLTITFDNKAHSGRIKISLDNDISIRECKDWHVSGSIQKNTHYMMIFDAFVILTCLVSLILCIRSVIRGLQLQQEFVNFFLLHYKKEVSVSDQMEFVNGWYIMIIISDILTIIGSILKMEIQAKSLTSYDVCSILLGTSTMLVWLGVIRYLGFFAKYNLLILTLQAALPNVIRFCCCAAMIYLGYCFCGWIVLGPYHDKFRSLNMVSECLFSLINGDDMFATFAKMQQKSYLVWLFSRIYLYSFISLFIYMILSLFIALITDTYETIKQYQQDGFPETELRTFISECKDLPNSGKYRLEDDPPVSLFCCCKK
# fMet-Leu-Phe receptor: fMet-Leu-Phe receptor (Mus musculus, UniProt P33766)
# Sequence of UniProt P33766 (whole entry, looked up): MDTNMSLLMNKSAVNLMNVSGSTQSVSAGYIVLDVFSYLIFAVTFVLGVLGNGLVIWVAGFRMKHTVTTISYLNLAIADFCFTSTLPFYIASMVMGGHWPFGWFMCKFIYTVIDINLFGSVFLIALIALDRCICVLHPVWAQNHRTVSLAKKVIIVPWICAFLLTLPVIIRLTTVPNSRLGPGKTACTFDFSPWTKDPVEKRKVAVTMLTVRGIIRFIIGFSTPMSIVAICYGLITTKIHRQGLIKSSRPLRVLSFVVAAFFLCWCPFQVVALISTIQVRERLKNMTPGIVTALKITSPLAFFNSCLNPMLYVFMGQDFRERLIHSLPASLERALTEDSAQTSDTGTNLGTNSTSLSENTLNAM
# TRPV1: Transient receptor potential cation channel subfamily V member 1 (TRPV1, Homo sapiens, UniProt Q8NER1)
# Sequence of UniProt Q8NER1 (whole entry, looked up): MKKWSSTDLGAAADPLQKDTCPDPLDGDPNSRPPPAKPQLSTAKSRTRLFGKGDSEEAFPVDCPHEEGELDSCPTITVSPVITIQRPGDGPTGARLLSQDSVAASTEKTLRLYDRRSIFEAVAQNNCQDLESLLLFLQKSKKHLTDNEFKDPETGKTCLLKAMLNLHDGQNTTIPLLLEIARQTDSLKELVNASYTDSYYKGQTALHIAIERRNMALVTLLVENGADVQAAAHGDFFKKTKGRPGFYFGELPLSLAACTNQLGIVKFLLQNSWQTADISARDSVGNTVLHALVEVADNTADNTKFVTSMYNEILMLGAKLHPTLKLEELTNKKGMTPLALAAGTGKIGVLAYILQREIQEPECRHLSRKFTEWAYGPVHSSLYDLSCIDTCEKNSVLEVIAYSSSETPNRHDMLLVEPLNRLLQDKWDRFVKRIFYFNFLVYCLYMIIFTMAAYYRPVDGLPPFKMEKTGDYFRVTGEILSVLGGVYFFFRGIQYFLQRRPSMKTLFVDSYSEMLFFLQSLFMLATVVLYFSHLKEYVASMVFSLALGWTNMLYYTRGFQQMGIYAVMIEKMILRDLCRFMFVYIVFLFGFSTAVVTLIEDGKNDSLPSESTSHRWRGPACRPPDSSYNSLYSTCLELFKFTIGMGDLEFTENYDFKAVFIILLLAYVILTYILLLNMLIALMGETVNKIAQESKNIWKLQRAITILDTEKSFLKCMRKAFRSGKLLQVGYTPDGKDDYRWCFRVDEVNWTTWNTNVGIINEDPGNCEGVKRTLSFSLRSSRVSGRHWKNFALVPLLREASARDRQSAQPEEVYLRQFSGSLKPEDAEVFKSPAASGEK
# Vcp: Transitional endoplasmic reticulum ATPase (Vcp, Mus musculus, UniProt Q01853)
# Sequence of UniProt Q01853 (whole entry, looked up): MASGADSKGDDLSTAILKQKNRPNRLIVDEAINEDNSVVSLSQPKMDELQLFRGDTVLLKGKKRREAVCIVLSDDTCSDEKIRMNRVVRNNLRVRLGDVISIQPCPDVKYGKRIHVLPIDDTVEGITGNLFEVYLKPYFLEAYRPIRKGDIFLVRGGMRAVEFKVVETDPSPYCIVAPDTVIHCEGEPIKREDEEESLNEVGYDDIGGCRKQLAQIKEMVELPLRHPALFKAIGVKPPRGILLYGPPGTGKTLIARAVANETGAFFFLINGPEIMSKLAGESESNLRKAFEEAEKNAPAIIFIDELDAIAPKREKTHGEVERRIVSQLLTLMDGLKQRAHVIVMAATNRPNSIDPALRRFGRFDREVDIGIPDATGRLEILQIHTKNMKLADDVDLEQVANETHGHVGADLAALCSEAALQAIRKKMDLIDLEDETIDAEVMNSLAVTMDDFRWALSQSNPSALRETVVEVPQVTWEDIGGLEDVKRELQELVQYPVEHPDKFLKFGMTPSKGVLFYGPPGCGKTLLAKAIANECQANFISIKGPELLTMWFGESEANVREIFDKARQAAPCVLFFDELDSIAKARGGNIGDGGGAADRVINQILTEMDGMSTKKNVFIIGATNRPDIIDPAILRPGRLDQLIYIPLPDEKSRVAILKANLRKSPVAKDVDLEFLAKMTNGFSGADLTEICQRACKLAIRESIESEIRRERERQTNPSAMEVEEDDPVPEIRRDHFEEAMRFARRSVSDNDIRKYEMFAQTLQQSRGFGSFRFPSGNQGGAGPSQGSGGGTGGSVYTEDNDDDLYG
# FPR1: fMet-Leu-Phe receptor (FPR1, Homo sapiens, UniProt P21462)
# Sequence of UniProt P21462 (whole entry, looked up): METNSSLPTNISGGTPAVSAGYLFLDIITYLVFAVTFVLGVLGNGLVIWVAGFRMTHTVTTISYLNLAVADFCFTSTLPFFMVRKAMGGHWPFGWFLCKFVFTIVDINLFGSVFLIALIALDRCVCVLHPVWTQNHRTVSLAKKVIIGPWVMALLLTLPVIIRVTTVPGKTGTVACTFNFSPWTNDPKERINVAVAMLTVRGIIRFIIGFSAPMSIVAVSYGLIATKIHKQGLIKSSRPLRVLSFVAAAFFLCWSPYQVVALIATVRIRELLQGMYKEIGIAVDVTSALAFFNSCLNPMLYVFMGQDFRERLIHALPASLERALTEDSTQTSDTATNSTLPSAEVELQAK
# Sequence of UniProt Q07889 (whole entry, unmodified, looked up): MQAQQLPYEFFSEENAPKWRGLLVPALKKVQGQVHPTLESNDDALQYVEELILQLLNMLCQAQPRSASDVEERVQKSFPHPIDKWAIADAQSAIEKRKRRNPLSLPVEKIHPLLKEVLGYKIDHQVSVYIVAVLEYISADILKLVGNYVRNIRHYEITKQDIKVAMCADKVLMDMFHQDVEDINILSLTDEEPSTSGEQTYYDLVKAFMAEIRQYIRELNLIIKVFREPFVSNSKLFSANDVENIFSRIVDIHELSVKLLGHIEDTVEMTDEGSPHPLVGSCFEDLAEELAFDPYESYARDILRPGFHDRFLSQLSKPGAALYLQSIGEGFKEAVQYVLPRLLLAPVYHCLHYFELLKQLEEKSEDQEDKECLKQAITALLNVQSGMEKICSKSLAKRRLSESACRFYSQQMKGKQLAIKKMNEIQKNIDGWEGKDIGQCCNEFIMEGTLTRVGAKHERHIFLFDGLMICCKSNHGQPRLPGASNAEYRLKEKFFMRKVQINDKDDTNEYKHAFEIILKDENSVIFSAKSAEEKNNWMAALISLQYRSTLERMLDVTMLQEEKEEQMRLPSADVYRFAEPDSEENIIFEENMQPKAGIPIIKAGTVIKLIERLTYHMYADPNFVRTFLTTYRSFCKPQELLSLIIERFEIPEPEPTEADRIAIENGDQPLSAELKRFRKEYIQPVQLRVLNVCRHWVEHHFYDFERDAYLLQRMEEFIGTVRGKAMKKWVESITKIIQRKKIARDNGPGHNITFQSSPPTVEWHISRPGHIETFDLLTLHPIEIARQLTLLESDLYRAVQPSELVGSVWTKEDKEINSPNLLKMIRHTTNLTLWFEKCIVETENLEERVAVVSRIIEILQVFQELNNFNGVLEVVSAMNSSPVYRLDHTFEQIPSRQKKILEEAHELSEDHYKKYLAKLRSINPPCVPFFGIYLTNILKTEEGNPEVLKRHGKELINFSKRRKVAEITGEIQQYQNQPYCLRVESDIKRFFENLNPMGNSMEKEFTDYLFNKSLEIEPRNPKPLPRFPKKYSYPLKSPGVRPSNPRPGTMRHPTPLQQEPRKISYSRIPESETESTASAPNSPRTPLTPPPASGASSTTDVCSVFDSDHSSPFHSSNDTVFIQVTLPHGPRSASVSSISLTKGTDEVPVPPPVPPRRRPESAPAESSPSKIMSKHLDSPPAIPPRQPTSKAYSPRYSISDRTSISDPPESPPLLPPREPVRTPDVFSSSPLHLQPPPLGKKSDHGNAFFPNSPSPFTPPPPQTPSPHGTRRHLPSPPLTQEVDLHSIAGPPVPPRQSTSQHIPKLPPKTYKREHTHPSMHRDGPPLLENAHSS
# Sequence of UniProt O14842 (whole entry, looked up): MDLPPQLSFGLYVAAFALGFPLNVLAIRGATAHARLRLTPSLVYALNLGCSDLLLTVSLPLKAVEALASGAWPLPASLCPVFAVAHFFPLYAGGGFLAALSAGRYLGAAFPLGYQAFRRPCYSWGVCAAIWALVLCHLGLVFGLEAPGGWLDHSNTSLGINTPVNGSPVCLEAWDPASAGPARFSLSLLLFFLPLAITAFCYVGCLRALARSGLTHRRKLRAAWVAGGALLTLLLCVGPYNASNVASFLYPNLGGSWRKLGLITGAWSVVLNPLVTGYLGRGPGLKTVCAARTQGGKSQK
# Sequence of UniProt O75469 (whole entry, looked up): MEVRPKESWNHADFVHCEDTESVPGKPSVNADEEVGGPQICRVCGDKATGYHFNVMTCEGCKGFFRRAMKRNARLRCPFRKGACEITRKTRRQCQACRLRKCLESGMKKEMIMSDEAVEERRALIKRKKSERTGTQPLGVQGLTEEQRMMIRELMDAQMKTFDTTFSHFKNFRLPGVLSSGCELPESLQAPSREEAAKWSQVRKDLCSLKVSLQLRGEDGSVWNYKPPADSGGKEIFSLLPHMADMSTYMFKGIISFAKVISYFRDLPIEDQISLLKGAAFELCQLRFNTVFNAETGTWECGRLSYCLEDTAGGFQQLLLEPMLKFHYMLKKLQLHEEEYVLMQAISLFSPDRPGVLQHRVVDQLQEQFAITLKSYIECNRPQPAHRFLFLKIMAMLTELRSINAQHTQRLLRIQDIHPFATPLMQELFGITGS
Compound,target,assay,system,setting,scale,EC50
CC(C)C[C@H](NC(=O)[C@@H](O)[C@H](N)Cc1ccccc1)C(=O)N1CCC[C@H]1C(=O)N1CCC[C@H]1C(=O)NCCCC[C@H](NC(=O)CN(C)C)C(=O)N[C@@H](CS)C(N)=O,"Aminopeptidase N (ANPEP, Homo sapiens, UniProt P15144)","enzyme activity, inhibitor",HT-1080,"30 min, together with: Ala-pNA 2 mM",,39.6 µM
COc1ccccc1C1CN=NC12CCCc1ccccc1C2=O (centres unmarked),MCOLN3,"calcium flux, agonist, Fluo-8 calcium",HEK293 expressing TRPML3,,,3.74 ± 1.02 µM
O=C(/C=C/C=C/c1ccc2c(c1)OCO2)N1CCCCC1,"NR1I2 (Homo sapiens, UniProt O75469)","reporter gene, agonist, measured: CYP3A4 promoter luciferase",HepG2 transfected with PXR,24 h,,2.5 µM
CC1=NN(CC(=O)Nc2ccc(Br)cc2)C(=O)CC1C (racemic),fMet-Leu-Phe receptor,"calcium signal, agonist",,,,25.1 µM
CC1CCN(c2nc(C(F)(F)F)ccc2CCNC(=O)C(C)c2ccc(NS(C)(=O)=O)c(F)c2)CC1 (centres unmarked),TRPV1,"45Ca2+ uptake, agonist",CHO expressing human TRPV1,,reference: capsaicin 1 µM maximal response,> 3 µM
CC1CC(C)(C)N(C(=O)CN2C(=O)c3ccccc3C2=O)c2ccccc21 (centres unmarked),"Mucolipin-1 (MCOLN1, Homo sapiens, UniProt Q9GZU1, L15A/L16A)","ion current, agonist, whole-cell patch clamp",HEK293 tetracycline-inducible,"pH 4.6, together with: extracellular Ca2+ 1.5 mM",,9.7 µM
Cc1ccc(C(C)C)cc1O,"TRPV3 (Homo sapiens, UniProt Q8NET8)","ion current, activator, whole-cell patch clamp",HEK293 transfected with TRPV3,range over 0.01 to 3.0 mM,,215 ± 47.9 µM
CCOc1ccc(S(=O)(=O)NC(C)(C)C)cc1-c1nc(O)c2c(n1)c(C(C)(C)C)nn2C,MCOLN3,"calcium flux, agonist, Fluo-8 calcium",HEK293 expressing TRPML3,,,0.88 µM and < 1 µM
Cc1cc(C2=C(c3ccccc3)C3CC(S(=O)(=O)Oc4ccc(O)cc4)C2[S+]3[O-])ccc1O (centres unmarked),"Estrogen receptor (ESR1, Homo sapiens, UniProt P03372)","reporter gene, agonist, luciferase",,,,0.34 µM
CC1=CC(C)(C)N(C(=O)CN2C(=O)c3ccccc3C2=O)c2ccccc21,MCOLN3,"calcium flux, agonist, Fluo-8 calcium",HEK293 expressing TRPML3,,,0.93 ± 0.2 µM
O=c1ccn([C@@]23C[C@H]2[C@@H]2COP(=O)(O)OP(=O)(O)O[C@H]2[C@H]3O)c(=O)[nH]1,"P2Y purinoceptor 6 (P2RY6, Homo sapiens, UniProt Q15077)","PLC activation, measured: inositol phosphates",1321-N1 expressing target,,,> 10 µM
Cc1ccc(S(=O)(=O)Nc2ccccc2-c2ccccc2)cc1,MCOLN3,"calcium flux, agonist, Fluo-8 calcium",HEK293 expressing TRPML3,,,2.41 ± 0.87 µM
O=C(OCCN(C1=NS(=O)(=O)c2ccccc21)c1ccc(Cl)cc1)c1ccco1,Vcp,"ATPase activity, activator, Kinase-Glo",,"Vcp 50 nM, together with: ATP 62.5 µM",,9 µM
C[S+](C)[O-],fMet-Leu-Phe receptor,"calcium signal, agonist, fluorescence",,,,97000 µM
Nc1nc2c(ncn2[C@@H]2O[C@@H]3COP(=O)(O)O[C@H]3[C@H]2O)c(=O)[nH]1,"CNGA3 (Homo sapiens, UniProt Q16281)","channel activation, agonist, inside-out patch clamp",Xenopus oocytes,"60 min, control patches without MMP9",,12.6 µM
O=S(=O)(Nc1ccccc1N1CCCCC1)c1ccc(Cl)s1,MCOLN3,"calcium flux, agonist, Fluo-8 calcium",HEK293 expressing TRPML3,,,0.66 µM and < 1 µM
CC(C)(C)c1ccc(-c2nc3n(c(=O)c2C#N)CCCS3)cn1,"Ionotropic glutamate receptor NMDA 1/2D (Rattus norvegicus, UniProt P35439+Q62645)","ion current, agonist, two-electrode voltage clamp",,oocytes,,5.7 µM
CC1CCN(c2nc(C(F)(F)F)ccc2CNC(=O)[C@@H](C)c2ccc(NS(C)(=O)=O)c(F)c2)CC1,TRPV1,"45Ca2+ uptake, agonist",CHO expressing human TRPV1,,reference: capsaicin 1 µM maximal response,> 3 µM
CCC(C(=O)Nc1ccc(Br)cc1)n1nc(C)cc(Cc2cccc(OC)c2)c1=O (racemic),FPR1,"calcium mobilization, agonist",HL-60 transfected with FPR1,,,1.3 µM
O=C(O)CCc1ccc(NCc2cccc(Oc3ccccc3)c2)cc1,"FFAR1 (Homo sapiens, UniProt O14842)","agonist, dynamic mass redistribution",CHO cells expressing FFA1,5 min,,0.4 ± 0.03 µM
CCC[C@H](C(=O)Nc1ccc(Br)cc1)n1nc(C)cc(Cc2cccc(OC)c2)c1=O,FPR1,"β-arrestin recruitment, agonist",,,,3.8 µM
c1ccc(C(CCNC2CCNCC2)c2ccccc2)cc1,"Son of sevenless homolog 1, catalytic domain (SOS1, Homo sapiens, UniProt Q07889)","nucleotide exchange, activator",,together with: BODIPY-GDP-loaded RAS,,8.7 µM
CC1CCN(c2nc(C(F)(F)F)ccc2CNC(=O)Nc2ccc(NS(C)(=O)=O)c(F)c2)CC1,TRPV1,"45Ca2+ uptake, agonist",CHO expressing human TRPV1,,reference: capsaicin 1 µM maximal response,> 3 µM
CCOc1ccc(S(=O)(=O)N2CCCCCC2)c2ccccc12,MCOLN3,"calcium flux, agonist, Fluo-8 calcium",HEK293 expressing TRPML3,,,< 1 µM and 0.99 µM
COCCNC(=O)NC(=O)COC(=O)c1cc([N+](=O)[O-])ccc1Sc1nc(C)cs1,Vcp,"ATPase activity, activator, Kinase-Glo",,"Vcp 50 nM, together with: ATP 62.5 µM",,24.7 µM
Nc1nc2c(ncn2[C@@H]2O[C@@H]3COP(=O)(O)O[C@H]3[C@H]2O)c(=O)[nH]1,"Cnga2 (Mus musculus, UniProt Q62398, M2V)","channel current, agonist, inside-out patch clamp",Xenopus oocytes,holding +100 mV,,1.2 µM

# Excerpt of the above:
Compound,target,assay,system,setting,scale,EC50
CC1=CC(C)(C)N(C(=O)CN2C(=O)c3ccccc3C2=O)c2ccccc21,MCOLN3,"calcium flux, agonist, Fluo-8 calcium",HEK293 expressing TRPML3,,,0.93 ± 0.2 µM
O=c1ccn([C@@]23C[C@H]2[C@@H]2COP(=O)(O)OP(=O)(O)O[C@H]2[C@H]3O)c(=O)[nH]1,"P2Y purinoceptor 6 (P2RY6, Homo sapiens, UniProt Q15077)","PLC activation, measured: inositol phosphates",1321-N1 expressing target,,,> 10 µM
CC1CCN(c2nc(C(F)(F)F)ccc2CNC(=O)[C@@H](C)c2ccc(NS(C)(=O)=O)c(F)c2)CC1,TRPV1,"45Ca2+ uptake, agonist",CHO expressing human TRPV1,,reference: capsaicin 1 µM maximal response,> 3 µM
c1ccc(C(CCNC2CCNCC2)c2ccccc2)cc1,"Son of sevenless homolog 1, catalytic domain (SOS1, Homo sapiens, UniProt Q07889)","nucleotide exchange, activator",,together with: BODIPY-GDP-loaded RAS,,8.7 µM
